Measured values from different studies.
Every numbered part comes from another study and shows a few of its results, in no order.
Sequence of UniProt P78368 (whole entry, looked up): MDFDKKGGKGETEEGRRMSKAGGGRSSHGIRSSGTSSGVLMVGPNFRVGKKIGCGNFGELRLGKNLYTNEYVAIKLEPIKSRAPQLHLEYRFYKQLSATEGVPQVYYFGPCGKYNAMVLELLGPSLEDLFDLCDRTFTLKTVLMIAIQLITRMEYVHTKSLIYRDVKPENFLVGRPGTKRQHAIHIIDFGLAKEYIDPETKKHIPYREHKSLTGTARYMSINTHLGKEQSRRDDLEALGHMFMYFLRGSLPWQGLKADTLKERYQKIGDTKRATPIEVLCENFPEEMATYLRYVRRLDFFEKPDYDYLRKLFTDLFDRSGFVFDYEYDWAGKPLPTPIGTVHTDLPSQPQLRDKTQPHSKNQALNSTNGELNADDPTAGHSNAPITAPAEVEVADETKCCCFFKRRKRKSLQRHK
Sequence of UniProt O43353 (whole entry, looked up): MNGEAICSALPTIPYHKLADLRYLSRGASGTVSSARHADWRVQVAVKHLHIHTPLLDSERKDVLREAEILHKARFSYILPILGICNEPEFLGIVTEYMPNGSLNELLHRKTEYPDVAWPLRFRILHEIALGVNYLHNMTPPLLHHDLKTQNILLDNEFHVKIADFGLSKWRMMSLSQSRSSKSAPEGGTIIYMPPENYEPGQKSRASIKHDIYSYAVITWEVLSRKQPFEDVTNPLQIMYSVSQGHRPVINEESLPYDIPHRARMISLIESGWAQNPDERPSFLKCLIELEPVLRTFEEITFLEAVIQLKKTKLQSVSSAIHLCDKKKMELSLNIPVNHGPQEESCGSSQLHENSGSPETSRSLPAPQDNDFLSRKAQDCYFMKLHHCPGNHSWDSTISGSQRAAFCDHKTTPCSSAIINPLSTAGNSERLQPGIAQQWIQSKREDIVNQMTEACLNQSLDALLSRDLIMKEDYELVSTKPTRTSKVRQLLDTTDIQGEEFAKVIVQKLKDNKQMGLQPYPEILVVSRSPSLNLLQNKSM
Sequence of UniProt Q92918 (whole entry, looked up): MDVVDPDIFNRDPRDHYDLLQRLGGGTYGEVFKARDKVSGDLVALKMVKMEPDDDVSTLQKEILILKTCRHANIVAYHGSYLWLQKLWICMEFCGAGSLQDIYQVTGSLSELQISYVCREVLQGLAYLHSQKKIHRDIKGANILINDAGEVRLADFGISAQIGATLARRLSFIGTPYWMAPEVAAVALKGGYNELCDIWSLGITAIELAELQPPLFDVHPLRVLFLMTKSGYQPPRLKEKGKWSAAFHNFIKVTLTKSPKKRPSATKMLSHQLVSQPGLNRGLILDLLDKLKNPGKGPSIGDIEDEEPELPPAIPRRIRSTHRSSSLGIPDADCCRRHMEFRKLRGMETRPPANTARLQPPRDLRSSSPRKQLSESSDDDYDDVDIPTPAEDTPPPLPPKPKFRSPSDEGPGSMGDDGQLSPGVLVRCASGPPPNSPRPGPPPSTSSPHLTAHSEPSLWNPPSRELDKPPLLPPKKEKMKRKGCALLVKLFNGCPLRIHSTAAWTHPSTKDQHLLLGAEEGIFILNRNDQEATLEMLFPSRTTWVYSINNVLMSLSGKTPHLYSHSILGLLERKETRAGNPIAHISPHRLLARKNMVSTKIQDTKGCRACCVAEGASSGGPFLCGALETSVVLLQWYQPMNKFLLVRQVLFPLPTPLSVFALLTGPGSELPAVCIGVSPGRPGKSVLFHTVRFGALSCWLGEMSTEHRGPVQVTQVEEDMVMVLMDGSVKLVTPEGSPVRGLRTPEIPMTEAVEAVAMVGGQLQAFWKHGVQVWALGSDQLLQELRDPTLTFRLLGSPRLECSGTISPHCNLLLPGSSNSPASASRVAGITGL
Sequence of UniProt O43683 (whole entry, looked up): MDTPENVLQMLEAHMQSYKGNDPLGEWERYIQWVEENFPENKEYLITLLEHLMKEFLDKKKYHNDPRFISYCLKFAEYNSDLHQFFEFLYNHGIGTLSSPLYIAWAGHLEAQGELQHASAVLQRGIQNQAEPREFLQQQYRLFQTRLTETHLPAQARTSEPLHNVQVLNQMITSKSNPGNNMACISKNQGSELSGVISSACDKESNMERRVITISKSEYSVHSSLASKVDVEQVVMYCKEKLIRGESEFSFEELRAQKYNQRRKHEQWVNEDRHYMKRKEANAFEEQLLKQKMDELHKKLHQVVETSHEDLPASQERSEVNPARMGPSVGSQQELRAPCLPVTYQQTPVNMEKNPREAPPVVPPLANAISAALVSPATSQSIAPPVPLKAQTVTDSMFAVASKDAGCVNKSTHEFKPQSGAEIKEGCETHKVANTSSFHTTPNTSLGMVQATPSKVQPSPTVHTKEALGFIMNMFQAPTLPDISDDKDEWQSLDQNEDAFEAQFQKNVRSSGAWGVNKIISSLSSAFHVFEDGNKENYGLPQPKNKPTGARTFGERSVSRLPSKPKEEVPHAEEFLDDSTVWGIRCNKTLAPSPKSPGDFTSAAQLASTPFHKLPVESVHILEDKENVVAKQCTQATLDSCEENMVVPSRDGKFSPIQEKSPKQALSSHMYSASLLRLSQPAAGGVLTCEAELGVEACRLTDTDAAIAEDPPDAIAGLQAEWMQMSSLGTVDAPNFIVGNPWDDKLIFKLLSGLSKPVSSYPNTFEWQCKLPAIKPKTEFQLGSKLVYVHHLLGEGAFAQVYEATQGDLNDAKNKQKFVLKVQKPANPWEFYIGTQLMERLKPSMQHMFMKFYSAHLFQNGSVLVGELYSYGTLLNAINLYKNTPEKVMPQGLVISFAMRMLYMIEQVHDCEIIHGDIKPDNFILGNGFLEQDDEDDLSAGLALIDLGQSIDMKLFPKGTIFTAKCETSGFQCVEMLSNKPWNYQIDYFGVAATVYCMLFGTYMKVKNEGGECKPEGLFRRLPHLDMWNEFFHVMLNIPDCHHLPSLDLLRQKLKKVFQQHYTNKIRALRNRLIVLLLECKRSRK

Sample 1
Target: Prothrombin, mature alpha-thrombin (F2, Homo sapiens, UniProt P00734)
Technique: aptamer microarray, sandwich
Form: DNA with 2'F-ANA
Matrix: in vitro
Tested at: 200 nM
Setting: whole 15-mer aptamer, many near background
With: Cy3 exosite-II aptamer, 400 nM
Reading: higher = stronger binding
Measurement: mean fluorescence intensity
Oligonucleotide: GGTTGGTGTGGTTGG
2'F-ANA at 1 2 5 6 7 9 15: 62.2 a.u.
2'F-ANA at 1 2 5 6 8 11 13 15: 52.3 a.u.
2'F-ANA at 2 4 5 7 8 10 12: 50.8 a.u.
2'F-ANA at 1 2 3 7 9 14: 75.7 a.u.
2'F-ANA at 2 5 8 9 13 14 15: 51.2 a.u.
2'F-ANA at 2 3 4 5 6 9 10 13 14 15: 62.9 a.u.
2'F-ANA at 1 2 3 4 5 9 11 12 14: 48.9 a.u.
2'F-ANA at 1 2 3 4 5 6 8 9 13 14: 72.3 a.u.

Sample 2
Target: Aurora kinase B (AURKB, Homo sapiens, UniProt Q96GD4)
Sequence of UniProt Q96GD4 (whole entry, looked up): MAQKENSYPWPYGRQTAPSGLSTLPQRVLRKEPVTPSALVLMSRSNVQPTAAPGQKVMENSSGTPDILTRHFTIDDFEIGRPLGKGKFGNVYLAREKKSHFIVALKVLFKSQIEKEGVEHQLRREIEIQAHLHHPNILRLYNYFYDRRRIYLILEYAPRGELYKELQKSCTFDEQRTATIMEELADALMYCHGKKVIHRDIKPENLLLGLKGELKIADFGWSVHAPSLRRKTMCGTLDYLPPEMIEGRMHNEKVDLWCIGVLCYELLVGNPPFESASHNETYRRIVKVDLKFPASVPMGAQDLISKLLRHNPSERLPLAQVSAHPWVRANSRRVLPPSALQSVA
Effect on: enzyme activity
Action: inhibitor
Tested at: 0.5 µM
Reference: control
Measurement: remaining activity
CO[C@H]1C[C@@H]2CC[C@@H](C)[C@@](O)(O2)C(=O)C(=O)N2CCCC[C@H]2C(=O)O[C@H]([C@H](C)C[C@@H]2CC[C@@H](O)[C@H](OC)C2)CC(=O)[C@H](C)/C=C(\C)[C@@H](O)[C@@H](OC)C(=O)[C@H](C)C[C@H](C)/C=C/C=C/C=C/1C: 95.2%
N#CC(C#N)=C(N)/C(C#N)=C/c1ccc(O)cc1: 91%
O=C(CCCc1ccc(-c2ccccc2F)cc1)Nc1ccc(O)cc1: 106%
Cc1nc(-c2ccccc2)c(-c2ccncc2)o1: 97.3%
CN(C)c1ccc(C=C2C(=O)Nc3ccccc32)cc1: 61.4%
O=C(O)c1ccc2c3c1cccc3c(=O)n1c3ccccc3nc21: 82.5%
O=c1c2ccccc2[nH]c(=S)n1CCN1CCC(=C(c2ccc(F)cc2)c2ccc(F)cc2)CC1: 102%
COc1cc2ncnc(Nc3ccc(Oc4ccccc4)cc3)c2cc1OC: 50.9%
Cc1ccc(NC(=O)c2ccc(CN3CCN(C)CC3)cc2)cc1Nc1nc(-c2cccnc2)cs1: 99.5%
CCOC(=O)c1c(C)[nH]c(/C=C2\C(=O)Nc3ccccc32)c1C: 67.3%
O=S(=O)(c1cccc2cnccc12)N1CCCNCC1: 98.8%
COc1ccc(C(=O)Nc2sc3c(c2C(N)=O)CCCC3)cc1OC: 96.2%
O=C1NC(=O)C(c2cn(CCCn3ccnc3)c3ccccc23)=C1Nc1ccccc1: 95.4%
Cn1sc(=O)n(Cc2ccccc2)c1=O: 102%

Sample 3
Target: Ras GTPase-activating protein-binding protein 1, RRM domain (G3BP1, Homo sapiens, UniProt Q13283)
Sequence of UniProt Q13283 (whole entry, looked up): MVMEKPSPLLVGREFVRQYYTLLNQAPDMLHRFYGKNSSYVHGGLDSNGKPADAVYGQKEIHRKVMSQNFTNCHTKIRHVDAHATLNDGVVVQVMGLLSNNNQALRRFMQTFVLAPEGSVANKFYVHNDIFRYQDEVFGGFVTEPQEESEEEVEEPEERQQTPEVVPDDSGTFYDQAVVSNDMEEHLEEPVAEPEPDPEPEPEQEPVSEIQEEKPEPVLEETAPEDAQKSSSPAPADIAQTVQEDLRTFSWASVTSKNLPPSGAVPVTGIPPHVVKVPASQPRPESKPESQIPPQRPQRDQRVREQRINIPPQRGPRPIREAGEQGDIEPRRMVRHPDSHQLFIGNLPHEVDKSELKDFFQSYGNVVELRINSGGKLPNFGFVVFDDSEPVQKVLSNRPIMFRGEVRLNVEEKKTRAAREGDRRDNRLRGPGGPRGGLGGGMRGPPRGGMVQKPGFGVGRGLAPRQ
Technique: RNA Bind-n-Seq
Form: RNA
Matrix: in vitro
Tested at: 1 µM
Setting: whole 134-nt RNA, ends assumed
With: 150 mM KCl
Reference: input library
Reading: higher = stronger binding
Measurement: log2 enrichment
All sequences stand within: GGGAGUUCUACAGUCCGACGAUC … UGGAAUUCUCGGGUGUCAAGG
ACCAUGCAGGUGGGCAUCUUUGGGAAGUGGGGCAAGGGGGGGAUAGGGAGGGGGGUAACACUUUGGGAAAAAGUGGUCCCAGGUCGUUUC: -0.518
CUCAAGUCCUGUGCUACACAUCGUAUGUACCGAAUCGGGCCGGGCCGGCCGGGGAAAGUAUUAUGUUACGCCGUUCGGAUCUGCACUUCC: -0.379
CCUCAAGUCCUGUGCUACACAUCGUAUGUACCGAAUCGGUGGAAAAAGGAGGAAAGUAUUAUGUUACGCCGUUCGGAUCUGCACUUCCAG: -0.117
UGUGAGCGGAGCCUGGAGGAGCUGCUGCACUACGUGGGCCAGCUGCGGGCUGAGCUGGCCAGCGCAGGUGGGUGGCCACCCUUGCAAGUG: -0.411
UCCUGUGCUACACAUCGUAUGUACCGAAUCGGGUUUUUUGGGGUUUUUUGGUUUUUUGGAAAGUAUUAUGUUACGCCGUUCGGAUCUGCA: -0.127
AGUCCUGUGCUACACAUCGUAUGUACCGAAUCAAAGUGUGUGUGUGUGUGUGUGUAAAAAAGUAUUAUGUUACGCCGUUCGGAUCUGCAC: 0.0388
UCCUGUGCUACACAUCGUAUGUACCGAAUCGGGCCCCCCGGGGCCCCCCGGCCCCCCGGAAAGUAUUAUGUUACGCCGUUCGGAUCUGCA: -0.319
CACAGACAACACGCACCCACACAGACACAGAGGGAAGGGGUUAAAAUGGGGACAGGGUGCACAGCAGGGCGGGGUAGGACCCCAGCCCCU: -0.0943

Sample 4
SMILES: CC(C)(O)c1cncc(-c2nc3ccc(F)cc3n2C2CC2)c1
Effect on: cell-free assay
Technique: competition with immobilised ligand
Tested at: 1 µM
Measurement: remaining binding
Casein kinase I isoform gamma-2 (CSNK1G2, Homo sapiens, UniProt P78368): 100%
Mitotic checkpoint serine/threonine-protein kinase BUB1 (BUB1, Homo sapiens, UniProt O43683): 99%
Mitogen-activated protein kinase kinase kinase kinase 1 (MAP4K1, Homo sapiens, UniProt Q92918): 99%
Receptor-interacting serine/threonine-protein kinase 2 (RIPK2, Homo sapiens, UniProt O43353): 100%

For quick reference, copied from above (sample 2):
O=c1c2ccccc2[nH]c(=S)n1CCN1CCC(=C(c2ccc(F)cc2)c2ccc(F)cc2)CC1: 102%
COc1cc2ncnc(Nc3ccc(Oc4ccccc4)cc3)c2cc1OC: 50.9%
Cc1ccc(NC(=O)c2ccc(CN3CCN(C)CC3)cc2)cc1Nc1nc(-c2cccnc2)cs1: 99.5%
CCOC(=O)c1c(C)[nH]c(/C=C2\C(=O)Nc3ccccc32)c1C: 67.3%
O=S(=O)(c1cccc2cnccc12)N1CCCNCC1: 98.8%
